Values quoted from earlier work as cited in several papers.
Each line is one published result; not all experiments were run side by side. ± marks the error that the study gave.
Cell line: HepG2

C/C(=N\NC(=O)c1ccc([N+](=O)[O-])cc1)c1ccc(NC(=O)c2cccnc2)cc1
IC50: 4610 nM

CC(=NN=C1SCC(=O)N1Cc1cn(C2OCC(O)C(O)C2O)nn1)c1cccnc1 (centres unmarked)
IC50 (cell proliferation): 2090 nM

O=C(Nc1cc2nc(-c3ccc(F)c(F)c3)cn2cn1)N1CC[C@H](F)C1
EC50: > 50000 nM

CCC1=C(O)c2c(oc(-c3cccc4ccccc34)cc2=O)C(CC)(CC)C1=O
IC50 (cell growth, SRB): 2060 nM

O=C(c1ccc(Br)cc1)[C@H]1[C@H](c2cn(-c3ccccc3)nc2-c2ccccc2)C2CC3CCCCC3N2[C@]12C(=O)Nc1ccc(Cl)cc12 (some centres unmarked)
IC50 (cell growth): 1040 ± 210 nM

COc1cc([C@@H]2O[C@@H](c3cc(O)c(OC)c(OC)c3)[C@H](C)[C@H]2C)ccc1O
IC50 (mRNA level, down-regulation, refers to: PCSK9 mRNA): 3150 nM

C/C(=N\Nc1ccccc1)c1ccc(NC(=O)c2cccnc2)cc1
IC50: 4090 nM

CCC1=C(O)c2c(oc(-c3ccc4cc(OC)ccc4c3)cc2=O)C(CC)(CC)C1=O
IC50 (cell growth, SRB): 13400 nM

O=C1NCC(Cc2ccccc2)N(CC2CCCN2CC(CC2CCCCC2)N2CC(Cc3ccc(O)cc3)N(CCc3ccccc3)C(=O)C2=O)C1=O (centres unmarked)
IC50 (cell viability; liver): > 100000 nM

CCC1=C(O)c2c(oc(-c3ccc(OC)c4ccccc34)cc2=O)C(CC)(CC)C1=O
IC50 (cell growth, SRB): 1480 nM

FC(F)(F)c1ccc(-c2nc3c(o2)c(C(F)(F)F)cc2cc[nH]c23)cc1
IC50 (refers to: PCSK9 protein expression): 29.7 nM

Excerpt of the above:
C/C(=N\Nc1ccccc1)c1ccc(NC(=O)c2cccnc2)cc1
IC50: 4090 nM
